Published values gathered from unrelated publications.
Numbered parts are unrelated; each lists some results of a single study. Positions count from the first letter of the parent shown.

Study 1
Target: Protein C-ets-1 (ETS1, Homo sapiens, UniProt P14921, residues 1-441, full length assumed)
Technique: protein-binding microarray
Form: double-stranded DNA, one strand shown
Medium: in vitro
Tested at: not given
Notes: k-mer, scored over probes, only values ≥0.25
Direction: higher = stronger binding
Measurement: E-score
Residues (chain): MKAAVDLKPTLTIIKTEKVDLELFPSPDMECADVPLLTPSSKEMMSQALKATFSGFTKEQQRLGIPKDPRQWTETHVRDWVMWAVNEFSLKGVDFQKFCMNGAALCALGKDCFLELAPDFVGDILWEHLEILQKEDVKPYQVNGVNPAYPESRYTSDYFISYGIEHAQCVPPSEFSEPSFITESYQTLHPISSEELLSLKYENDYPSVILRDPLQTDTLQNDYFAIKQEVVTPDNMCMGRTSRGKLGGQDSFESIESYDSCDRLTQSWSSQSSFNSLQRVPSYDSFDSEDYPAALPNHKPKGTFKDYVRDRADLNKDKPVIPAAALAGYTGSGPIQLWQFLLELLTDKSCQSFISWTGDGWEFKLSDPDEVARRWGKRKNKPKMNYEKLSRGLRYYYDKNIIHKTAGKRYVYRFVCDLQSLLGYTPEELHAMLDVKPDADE
AGTTCCGG: 0.473
AGGAAACT: 0.423
GAAGGAAA: 0.374
ATACGGAT: 0.283
ATACCGGG: 0.261
AACCGGAC: 0.413
CAAGGAAG: 0.408
AGAGCGGA: 0.334

Single results of other studies
PDIA3: PDIA3 (Homo sapiens, UniProt P30101)
CCNA2: CCNA2, cyclin fold, Cln2 fusion (human)
OGT: UDP-N-acetylglucosamine--peptide N-acetylglucosaminyltransferase 110 kDa subunit (OGT, Homo sapiens, UniProt O15294)
Chain of UniProt O15294 (whole entry, looked up): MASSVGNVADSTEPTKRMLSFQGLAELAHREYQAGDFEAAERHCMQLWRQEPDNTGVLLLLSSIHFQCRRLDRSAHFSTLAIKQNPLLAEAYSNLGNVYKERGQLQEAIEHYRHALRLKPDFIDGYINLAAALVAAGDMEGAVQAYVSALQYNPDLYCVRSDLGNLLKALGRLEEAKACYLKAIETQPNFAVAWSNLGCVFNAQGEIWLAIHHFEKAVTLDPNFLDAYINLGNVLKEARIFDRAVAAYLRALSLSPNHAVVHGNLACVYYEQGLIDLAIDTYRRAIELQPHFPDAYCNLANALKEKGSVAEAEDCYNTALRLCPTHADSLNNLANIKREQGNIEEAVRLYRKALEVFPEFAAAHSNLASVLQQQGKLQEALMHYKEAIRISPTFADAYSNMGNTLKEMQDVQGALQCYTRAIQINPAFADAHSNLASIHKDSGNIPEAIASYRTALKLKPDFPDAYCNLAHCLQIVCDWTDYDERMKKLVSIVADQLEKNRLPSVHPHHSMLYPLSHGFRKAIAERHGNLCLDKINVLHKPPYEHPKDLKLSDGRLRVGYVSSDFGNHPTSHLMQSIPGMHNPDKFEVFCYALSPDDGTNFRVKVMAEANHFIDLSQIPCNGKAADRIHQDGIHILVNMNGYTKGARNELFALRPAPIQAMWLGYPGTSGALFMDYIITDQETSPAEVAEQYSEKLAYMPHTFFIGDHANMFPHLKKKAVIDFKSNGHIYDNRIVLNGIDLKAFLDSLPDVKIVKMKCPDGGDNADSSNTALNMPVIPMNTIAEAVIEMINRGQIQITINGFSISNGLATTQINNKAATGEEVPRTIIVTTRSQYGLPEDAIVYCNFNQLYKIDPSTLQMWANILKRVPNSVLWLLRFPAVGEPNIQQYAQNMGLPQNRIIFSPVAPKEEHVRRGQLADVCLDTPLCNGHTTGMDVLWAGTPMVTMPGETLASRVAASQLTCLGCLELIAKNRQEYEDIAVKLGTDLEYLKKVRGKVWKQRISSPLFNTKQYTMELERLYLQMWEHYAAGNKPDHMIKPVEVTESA
P1: PafA, mature enzyme, eGFP fusion (Elizabethkingia meningoseptica, UniProt Q9KJX5); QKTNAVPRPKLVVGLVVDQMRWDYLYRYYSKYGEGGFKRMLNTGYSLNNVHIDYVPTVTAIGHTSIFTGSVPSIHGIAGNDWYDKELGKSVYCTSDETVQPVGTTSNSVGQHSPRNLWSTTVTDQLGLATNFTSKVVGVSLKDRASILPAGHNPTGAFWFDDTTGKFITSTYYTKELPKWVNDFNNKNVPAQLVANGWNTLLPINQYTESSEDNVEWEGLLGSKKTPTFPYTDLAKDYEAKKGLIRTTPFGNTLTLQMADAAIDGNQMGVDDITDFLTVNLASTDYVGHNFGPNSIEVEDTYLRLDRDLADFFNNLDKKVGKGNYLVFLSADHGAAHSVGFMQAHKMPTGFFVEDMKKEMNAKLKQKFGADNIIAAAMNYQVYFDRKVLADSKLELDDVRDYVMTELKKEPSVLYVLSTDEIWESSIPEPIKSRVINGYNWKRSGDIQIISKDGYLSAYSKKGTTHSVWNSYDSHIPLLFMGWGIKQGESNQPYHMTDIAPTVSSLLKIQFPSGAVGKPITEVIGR
P2: viral docking peptide; YKVKRRLVFGADD; partner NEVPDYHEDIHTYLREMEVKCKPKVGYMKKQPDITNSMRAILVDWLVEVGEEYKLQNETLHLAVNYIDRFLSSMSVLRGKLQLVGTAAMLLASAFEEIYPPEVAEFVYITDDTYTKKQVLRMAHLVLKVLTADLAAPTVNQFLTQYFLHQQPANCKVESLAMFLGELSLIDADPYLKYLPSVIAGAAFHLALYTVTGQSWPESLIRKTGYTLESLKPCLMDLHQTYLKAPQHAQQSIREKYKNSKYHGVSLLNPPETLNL
P1 V516A  oxyanion analog dissociation constant (tungstate, free oxyanion; microfluidic competitive inhibition; in vitro, cell-free expressed; not given, derived from inhibition constants, unchanged parent 2230 nM; lower = stronger binding): 1.57 µM
CALR (Homo sapiens, UniProt P27797)  interaction screen (PDIA3; cross-linking MS; hits only): cross-linked
P2 K2Y  normalised enrichment score (CCNA2; yeast growth competition, sequencing; yeast; strong parent motif; baseline: not given, higher = stronger binding): 5.83
NOL8 (Homo sapiens, UniProt Q76FK4)  cross-linked residues (LRRC59 (Homo sapiens, UniProt Q96AG4); cross-linking MS; cell fractions; with: DSSO): K279 to K73
TSATSYLPYYTIYPG  enrichment fold change (OGT; binding, phage display NGS; peptide; concentration not given; baseline: input library): 1.79
PPP2R1A (Homo sapiens, UniProt P30153)  cross-linked residues (CCDC6 (Homo sapiens, UniProt Q16204); cross-linking MS; cell fractions; with: DSSO): K331 to K71
HRVHTVETHYISHIV  enrichment fold change (OGT; binding, phage display NGS; peptide; concentration not given; baseline: input library): 2.43
P2 F9T  normalised enrichment score (CCNA2; yeast growth competition, sequencing; yeast; strong parent motif; baseline: not given, higher = stronger binding): 0.888
PDIA4 (Homo sapiens, UniProt P13667)  interaction screen (PDIA3; cross-linking MS; hits only): cross-linked

Repeated from above (single results of other studies):
P1 V516A  oxyanion analog dissociation constant (tungstate, free oxyanion; microfluidic competitive inhibition; in vitro, cell-free expressed; not given, derived from inhibition constants, unchanged parent 2230 nM; lower = stronger binding): 1.57 µM
CALR (Homo sapiens, UniProt P27797)  interaction screen (PDIA3; cross-linking MS; hits only): cross-linked
